Results collected from several papers.
Each line is one published result; not all experiments were run side by side. “And” joins repeats or separate records; there may be more than shown. ± marks the error that the study gave.

Compound | assay | system | conditions | clearance
CCC(=O)O[C@]1(C(=O)SCF)[C@H](C)C[C@H]2[C@@H]3C[C@H](F)C4=CC(=O)C=C[C@]4(C)[C@@]3(F)[C@@H](O)C[C@@]21C | three-compartment model | rat, plasma | intravenous, 90 nmol/kg | 183 ± 16.7 mL/min/kg
Cc1nccn1CC1CCc2c(c3ccccc3n2C)C1=O (stereo not shown) |  | male Sprague Dawley rat, plasma | iv bolus, 5 mg/kg, added: tariquidar 15 mg/kg iv | 61.7 mL/min/kg
CCOCC(=O)N1CCC[C@H](C(=O)NCc2nc(-c3ccc(C#N)nc3)cs2)C1 |  | Sprague-Dawley rat, male, plasma | intravenous, 1 mg/kg | 3.9 mL/min/kg
CNC(=O)c1cccc(-c2ccc([C@@H](O)[C@H]3O[C@H](CO)[C@@H](O)[C@H](O)[C@@H]3O)c(C)c2)c1 |  | Sprague-Dawley rat, male, plasma | intravenous, 3 mg/kg | 33.8 mL/min/kg and 34.2 mL/min/kg and 36.6 mL/min/kg
COCC(=O)N1CCC[C@H](C(=O)NCc2nc(-c3ccc(C#N)cc3)cs2)C1 |  | Sprague-Dawley rat, male, plasma | intravenous, 1 mg/kg | 0.62 mL/min/kg
COc1cc2c3c(n(CCCN4CCOCC4)c(=O)c2cc1OC)-c1cc2c(cc1C3=O)OCO2 |  | Fischer 344 rats, male | intravenous bolus, 12 mg/m^2 | 50.9 L/h/m²
NCCOCC(=O)N1CCC[C@H](C(=O)NCc2nc(-c3ccc(C(F)(F)F)cc3)cs2)C1 |  | Sprague-Dawley rat, male, plasma | intravenous, 1 mg/kg | 18 mL/min/kg
Cc1nc(-c2cnc(NC(C)C)n(C)c2=O)ccc1Oc1ccnc(-c2cnn(C)c2)c1 |  | Sprague-Dawley rat, male, plasma | intravenous, 1 mg/kg | 0.5 mL/min/kg
C[C@H]1Oc2cc(cnc2N)-c2c(nn(C)c2C#N)CN(C)C(=O)c2ccc(F)cc21 | population PK | patients with moderate renal impairment, plasma | oral, 100 mg, mean, single dose | 119 mL/min
CCONC(=O)N1CCC[C@H](C(=O)NCc2nc(-c3ccc(C#N)cc3)cs2)C1 |  | Sprague-Dawley rat, male, plasma | intravenous, 1 mg/kg | 6.5 mL/min/kg
CCCC(CCC)NC(=O)c1ccc2c(c1)OCO2 |  | Sprague-Dawley rat, male, plasma | intravenous, 1 mg/kg | 30.7 mL/min/kg
Cc1ccc(S(=O)(=O)n2cc3c4c2C(=O)C(NCc2ccc(Cl)cc2)=CC4=NCC3)cc1 |  | Sprague-Dawley rat, plasma | intravenous, 5 mg/kg, two-compartment model | 0.05 mL/min/kg and 0.0333 mL/min/kg
COc1cc(-c2cc(C(C)=O)n3ccccc23)c(OC)cc1Cn1ccnc1 |  | Sprague-Dawley rat, male, plasma | oral, 5 mg/kg | 40.2 mL/min/kg
N#C[C@@]12C[C@@H]1[C@@H](n1cnc3c(N[C@@H](C4CCC4)C4CC4)nc(I)nc31)[C@H](O)[C@@H]2O |  | Wistar rats male, plasma | oral, 3.0 mg/kg | 475 mL/min/kg
Cc1cccc(CNC(=O)c2cn(CCNC(=O)c3ccccc3Sc3c([N+](=O)[O-])ncn3C)c3cc4c(cc3c2=O)OC(F)(F)O4)n1 |  | Sprague-Dawley rat, male, whole blood | intravenous, 5 mg/kg | 1170 ± 103 mL/min/kg
N=C(N)NCCNC(=O)C1(Nc2ccccc2)CCN(Cc2ccccc2)CC1 |  | Sprague-Dawley rats (male), plasma | intravenous, 2.5 mg/kg | 20 ± 5 mL/min

Excerpt of the above:
Compound | assay | system | conditions | clearance
N#C[C@@]12C[C@@H]1[C@@H](n1cnc3c(N[C@@H](C4CCC4)C4CC4)nc(I)nc31)[C@H](O)[C@@H]2O |  | Wistar rats male, plasma | oral, 3.0 mg/kg | 475 mL/min/kg
